Assay results collected from several papers.
Compare with care: the assays were run in different laboratories.
Target: BDNF/NT-3 growth factors receptor (NTRK2, Homo sapiens, UniProt Q16620)

With `COc1c(Cl)cccc1Nc1c(-c2ccncc2C#C[C@@]2(C)CCCN2C(=O)/C=C/CN(C)C)[nH]c2c1C(=O)NCC2` the remaining binding was 80% (cell-free assay, competition with immobilised ligand; 3 µM).
For `COc1cc(NC(=O)Nc2cc(C(F)(F)F)ccc2F)ccc1C(=O)Nc1ccc2[nH]ncc2c1`, the inhibition was 19.7% (enzyme activity, inhibitor, FRET; 1 µM).
`CCn1nc(Cl)c2c1-c1cnc(N)c(c1)O[C@H](C)c1cc(F)ccc1-c1nn(C)cc1C2` gave a Hill slope of 1.98 (receptor phosphorylation; NG).
`O=C(Cc1ccc(OCc2ccccc2)cc1)NC1(C(=O)O)CCN(C(=O)c2ccc(-c3cccc(Cl)c3)cc2)CC1` — result for “activity vs control”: 128% (enzyme activity, inhibitor; 10 µM).
For `O=C=[N][Ru-4]123([n]4c5ccc(O)cc5c5c6c(c7cc(F)c[n+]1c7c54)C(=O)NC6=O)[S+]1CC[S+]2CC[S+]3CC1` (stereo not shown), the remaining activity was 75% (enzyme activity; 100 nM, human enzyme, together with: 10 µM ATP; baseline: untreated).
`Nc1ncc(-c2cc(-c3cnn(CC(F)(F)F)c3)ncc2F)nc1C(=O)NC1CNCC(F)C1` (stereo not shown) has a remaining activity of 91% (enzyme activity; 1 µM; baseline: DMSO control).
`Cc1cc(C(=O)Nc2ccc3[nH]ncc3c2)ccc1NC(=O)Nc1cc(C(F)(F)F)ccc1F` gave an inhibition of 11.9% (enzyme activity, inhibitor, FRET; 1 µM).
The remaining binding of `COc1cc(Nc2nccc(-c3cnn4nc(OC)ccc34)n2)cc(C(F)(F)F)c1` is reported as 67% (binding, competition with immobilised ligand; 1 µM).
`CNC(=O)c1ccc(-c2cc(=O)c3ccc4[nH]c(C(F)(F)F)nc4c3o2)cc1`: antiapoptotic activity “decreased” (agonist, MTT; concentration not given, together with: staurosporine).
`CCN1CCN(Cc2ccc(NC(=O)c3ccc(C)c(NC(=O)c4cncc(-c5cnn(C)c5)c4)c3)cc2C(F)(F)F)CC1` has a remaining binding of 53% (binding, competition with immobilised ligand; 1 µM).
For `C=CC(=O)N1CCCC(n2c(=O)c3ncccc3n(Cc3ccc(Oc4ccccc4)cc3)c2=O)C1` (stereo not shown), the remaining binding was 78% (cell-free assay, competition with immobilised ligand; 1 µM).
The inhibition of `O=C(Nc1cc(C(=O)Nc2ccc3[nH]ncc3c2)ccc1F)Nc1cc(C(F)(F)F)ccc1F` is reported as 14.9% (enzyme activity, inhibitor, FRET; 1 µM).
`COc1c(OCCCN2CCOCC2)ccc2c1N=C(NC(=O)c1cnc(N)nc1)N1CCN=C21` gave a remaining activity of 134% (kinase activity, inhibitor; 1 µM; baseline: untreated control).
The inhibition of `O=C(Nc1ccc(C(=O)Nc2ccc3[nH]ncc3c2)c(Cl)c1)Nc1cc(C(F)(F)F)ccc1F` is reported as 12.2% (enzyme activity, inhibitor, FRET; 1 µM).
`CNC(=O)C1CCN(c2cc(C)c(F)cc2NC(=O)c2ccc(-c3cc(O)ccc3C)c(C)c2)CC1` gave a remaining binding of 48% (binding, competition with immobilised ligand; 1 µM).
The remaining binding of `CCN1CCN(Cc2ccc(C(=O)Nc3ccc(C)c(NCc4cnc5[nH]ccc5c4OC)c3)cc2C(F)(F)F)CC1` is reported as 2.3% (binding, competition with immobilised ligand; 1 µM).

Some of these lines once more:
`Nc1ncc(-c2cc(-c3cnn(CC(F)(F)F)c3)ncc2F)nc1C(=O)NC1CNCC(F)C1` (stereo not shown) has a remaining activity of 91% (enzyme activity; 1 µM; baseline: DMSO control).
For `C=CC(=O)N1CCCC(n2c(=O)c3ncccc3n(Cc3ccc(Oc4ccccc4)cc3)c2=O)C1` (stereo not shown), the remaining binding was 78% (cell-free assay, competition with immobilised ligand; 1 µM).
